Measured values gathered from unrelated publications.
Every numbered part comes from another study and shows a few of its results, in no order. Positions count from the first letter of the parent shown.

Set 1
Target: Histone acetyltransferase KAT6A, winged helix 1, GST fusion (KAT6A, Homo sapiens, UniProt Q92794, residues 1-85)
Technique: protein binding microarray
Form: double-stranded DNA, one strand shown
Medium: in vitro
Tested at: not given
Setting: 8-mer, flanks averaged, mean of 2 arrays, mostly near background
Reference: not given
Reading: higher = stronger binding
Construct (chain): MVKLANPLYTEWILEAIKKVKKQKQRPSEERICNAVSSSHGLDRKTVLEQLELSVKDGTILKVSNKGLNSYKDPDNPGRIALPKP
The E-score of `CGGGCATC` is reported as 0.166.
With `CGAACGCG` the E-score was 0.334.
With `ATAGTTCA` the E-score was 0.0164.
`ATGTGTTG` has an E-score of -0.124.
The E-score of `CCTCGTGC` is reported as -0.0916.
With `ACTGTTCG` the E-score was -0.145.
The E-score of `CTCTATTC` is reported as 0.0508.
For `AGTACTGA`, the E-score was -0.00553.
With `ATAACAAT` the E-score was -0.213.
The E-score of `CCCACTAC` is reported as -0.323.
For `CTAGTCAG`, the E-score was -0.265.
For `AGACTCAC`, the E-score was -0.254.
The E-score of `ACGTCTCA` is reported as -0.126.
`ACGAAAAC` gave an E-score of -0.125.
With `CGGCAGCA` the E-score was 0.284.
The E-score of `GCTGACCA` is reported as -0.141.
`ACTCATTG` has an E-score of -0.162.
`AGAGGGAT` gave an E-score of -0.175.
With `AGGCCTCA` the E-score was -0.106.

Set 2
Target: Interferon regulatory factor 5, full length, phosphomimetic (IRF5, Homo sapiens, UniProt Q13568-2, residues 1-514, S451D/S453D/S456D/S462D)
Technique: protein-binding microarray
Form: double-stranded DNA, one strand shown
Medium: in vitro
Tested at: 940 nM top
Setting: 60-bp whole probe
With: salmon DNA 0.4 mg/ml
Reference: random background probes
Reading: higher = stronger binding
Constant ends, left off below: GCCTAGCAC … GTCTTGATTCGCTTGACGCTGCTG
For `TTAGAACTGAGTCTCGATTCGTGCTAG`, “fitted relative affinity” read 2.08 z-score.
Under “fitted relative affinity”, `GACGGTTTCGGTTCCGGGATGTGCTAG` is recorded as 13.4 z-score.
`TCAAATTCTCATTTCCAACTGTGCTAG`: “fitted relative affinity” 1.27 z-score.
Under “fitted relative affinity”, `TTAAGTATCGACTTTCGGTTAGTGCTA` is recorded as 6.17 z-score.
`TTAGATTTCAGACTTGATTAGTGCTAG` — result for “fitted relative affinity”: 0.126 z-score.
Under “fitted relative affinity”, `TTAGGACTGGGACTGGGTCAGTGCTAG` is recorded as -0.906 z-score.
For `GACGCACTGCTTCTCCTGACGTGCTAG`, “fitted relative affinity” read 0.0702 z-score.
`GACGGACTGGACTATCGGGATGTGCTA`: “fitted relative affinity” -0.366 z-score.
For `TCAGATTTCAATTAAAAACTGTGCTAG`, “fitted relative affinity” read 0.173 z-score.
For `GACGATTTCTGGTATCGAGACGTGCTA`, “fitted relative affinity” read 2.54 z-score.
`TTAGTTATCGGGTTTCGATTAGTGCTA` — result for “fitted relative affinity”: 5.68 z-score.
`TCATTTTTTCATATATAACTGTGCTAG`: “fitted relative affinity” 1.48 z-score.
`TCAAGATTTTTTTTCCTACTGTGCTAG` — result for “fitted relative affinity”: 0.865 z-score.
`GACGGACTGGGGATTCGGGACGTGCTA` — result for “fitted relative affinity”: 0.0219 z-score.
`CATTCTCTGCTTCTGTATGGGTGCTAG` — result for “fitted relative affinity”: 2.66 z-score.
`GACGGTTTCGGTTCGGGGACGTGCTAG` — result for “fitted relative affinity”: 12.6 z-score.
Under “fitted relative affinity”, `TTAGATTTCAGTTCGGATTAGTGCTAG` is recorded as 0.784 z-score.
Under “fitted relative affinity”, `TTAGAACTCGGGTATCGATTAGTGCTA` is recorded as 2.65 z-score.
`TCAGATTTTTTTTCCTAACTGTGCTAG` — result for “fitted relative affinity”: 1.17 z-score.

Set 3
Target: Sal-like protein 4, full length isoform A (SALL4, Homo sapiens, UniProt Q9UJQ4, residues 1-1053)
UniProt Q9UJQ4, sequence (whole entry, looked up): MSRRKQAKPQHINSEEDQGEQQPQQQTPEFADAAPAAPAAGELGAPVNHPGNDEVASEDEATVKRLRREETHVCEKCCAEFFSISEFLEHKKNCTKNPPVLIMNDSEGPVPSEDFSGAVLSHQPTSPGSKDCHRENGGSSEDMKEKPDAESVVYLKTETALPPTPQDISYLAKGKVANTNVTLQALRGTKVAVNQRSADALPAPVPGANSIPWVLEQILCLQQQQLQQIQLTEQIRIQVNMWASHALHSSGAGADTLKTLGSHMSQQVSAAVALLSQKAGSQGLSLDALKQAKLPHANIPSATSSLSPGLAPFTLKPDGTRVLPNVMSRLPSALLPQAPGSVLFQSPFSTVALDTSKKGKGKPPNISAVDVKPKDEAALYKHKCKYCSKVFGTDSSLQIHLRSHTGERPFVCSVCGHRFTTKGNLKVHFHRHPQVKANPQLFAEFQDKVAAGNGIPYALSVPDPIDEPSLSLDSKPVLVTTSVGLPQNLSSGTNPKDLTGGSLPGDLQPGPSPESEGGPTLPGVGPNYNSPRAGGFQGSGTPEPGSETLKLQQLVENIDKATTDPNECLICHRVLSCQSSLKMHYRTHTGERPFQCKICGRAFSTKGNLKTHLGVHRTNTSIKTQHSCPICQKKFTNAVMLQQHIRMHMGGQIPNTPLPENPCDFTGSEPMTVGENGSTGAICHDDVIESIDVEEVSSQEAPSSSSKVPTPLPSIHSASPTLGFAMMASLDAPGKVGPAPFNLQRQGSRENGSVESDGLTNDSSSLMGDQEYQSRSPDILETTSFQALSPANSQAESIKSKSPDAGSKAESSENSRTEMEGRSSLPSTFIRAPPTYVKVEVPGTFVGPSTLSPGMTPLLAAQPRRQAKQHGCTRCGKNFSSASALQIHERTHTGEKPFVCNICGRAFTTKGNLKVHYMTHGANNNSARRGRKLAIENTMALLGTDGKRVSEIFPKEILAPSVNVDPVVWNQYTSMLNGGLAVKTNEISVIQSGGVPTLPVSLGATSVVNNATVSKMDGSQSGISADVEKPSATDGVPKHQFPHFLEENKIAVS
Technique: universal PBM
Form: double-stranded DNA, one strand shown
Medium: in vitro
Tested at: 600 nM
Setting: 8-mer, flanks averaged, mean of replicates
Reading: higher = stronger binding
`AACCCGTA` gave an E-score of -0.0636.
`GGGCACTA` gave an E-score of -0.145.
`ATCGCACG` gave an E-score of -0.0422.
The E-score of `ATTACGTC` is reported as 0.16.
`ATCCACTG` gave an E-score of -0.139.
The E-score of `GGGATTAC` is reported as -0.168.
The E-score of `AATCCCGT` is reported as -0.129.
`AACCCATA` has an E-score of 0.264.
`ATTCCGGA` has an E-score of 0.0974.
With `AGACCGCA` the E-score was -0.133.
With `GGGCACCC` the E-score was -0.304.
For `GGGTTAAC`, the E-score was -0.0557.
`CACGAGAA` has an E-score of -0.149.
For `AGGTCTCA`, the E-score was -0.131.
`GAACACTC` has an E-score of -0.0478.
For `ATAAACGC`, the E-score was 0.246.
With `CTGGTTGC` the E-score was -0.138.
`GCCACATA` gave an E-score of -0.029.
For `CACCTCAA`, the E-score was -0.137.
For `CACGCAAC`, the E-score was -0.0388.
With `GGCCGGTA` the E-score was -0.232.

Set 4
Target: CCND2, cyclin fold, Cln2 fusion (human)
Technique: yeast growth competition, sequencing
Medium: yeast
Setting: weak parent motif
Reference: not given
Reading: higher = stronger binding
Parent: SLBP docking peptide (human); ARYKRKLLINDFG; partner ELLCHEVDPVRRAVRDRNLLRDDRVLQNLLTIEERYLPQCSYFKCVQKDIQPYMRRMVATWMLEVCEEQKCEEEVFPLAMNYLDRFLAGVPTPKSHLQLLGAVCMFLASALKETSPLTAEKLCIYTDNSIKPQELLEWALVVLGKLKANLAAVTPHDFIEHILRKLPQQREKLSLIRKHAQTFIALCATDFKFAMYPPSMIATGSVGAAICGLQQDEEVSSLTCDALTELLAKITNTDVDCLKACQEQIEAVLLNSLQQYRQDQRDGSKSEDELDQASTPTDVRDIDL
`R2K` — result for “normalised enrichment score”: 0.247.
`G13A` — result for “normalised enrichment score”: -0.202.
Under “normalised enrichment score”, `Y3I` is recorded as 0.275.
`F12H`: “normalised enrichment score” 0.134.
`I9Q` — result for “normalised enrichment score”: -0.365.
For `K6Y`, “normalised enrichment score” read -0.109.
`K4P` — result for “normalised enrichment score”: -0.543.
For `I9H`, “normalised enrichment score” read 0.325.
`D11N`: “normalised enrichment score” -0.101.
Under “normalised enrichment score”, `G13V` is recorded as 0.474.
For `R2L`, “normalised enrichment score” read 0.106.
Under “normalised enrichment score”, `Y3N` is recorded as 0.228.
`D11T` — result for “normalised enrichment score”: 0.055.
`K6A` — result for “normalised enrichment score”: 0.45.

Set 5
Target: Ras GTPase-activating protein-binding protein 1, full length (G3BP1, Homo sapiens, UniProt Q13283)
UniProt Q13283, sequence (whole entry, looked up): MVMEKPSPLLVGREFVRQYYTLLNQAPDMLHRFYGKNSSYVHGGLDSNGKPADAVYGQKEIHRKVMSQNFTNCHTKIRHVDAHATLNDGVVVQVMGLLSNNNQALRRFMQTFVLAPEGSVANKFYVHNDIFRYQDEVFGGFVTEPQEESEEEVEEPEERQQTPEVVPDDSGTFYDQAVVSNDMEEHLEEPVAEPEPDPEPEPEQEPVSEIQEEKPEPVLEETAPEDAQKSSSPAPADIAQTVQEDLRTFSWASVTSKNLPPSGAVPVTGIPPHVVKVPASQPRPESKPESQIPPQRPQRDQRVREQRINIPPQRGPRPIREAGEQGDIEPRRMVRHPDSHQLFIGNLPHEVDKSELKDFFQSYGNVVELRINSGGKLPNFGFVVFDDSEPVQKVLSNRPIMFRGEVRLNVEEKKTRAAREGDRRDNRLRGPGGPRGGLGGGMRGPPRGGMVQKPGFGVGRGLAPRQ
Technique: RNA Bind-n-Seq
Form: RNA
Medium: in vitro
Tested at: 200 nM
Setting: whole 134-nt RNA, ends assumed
With: 150 mM LiCl
Reference: input library
Reading: higher = stronger binding
All molecules: 7-deaza-guanosine replaces G
Constant ends, left off below: GGGAGUUCUACAGUCCGACGAUC … UGGAAUUCUCGGGUGUCAAGG
The log2 enrichment of `ACCAUGCAGGUGGGCAUCUUUGGGAAGUGGGGCAAGGGGGGGAUAGGGAGGGGGGUAACACUUUGGCAACAGGUGGUCCCAGGUCGUUUC` is reported as 0.329.
With `UCCUGUGCUACACAUCGUAUGUACCGAAUCGGUUUUUUGGGGUUUUUUGGUUUUUUGGGAAAGUAUUAUGUUACGCCGUUCGGAUCUGCA` the log2 enrichment was 0.464.
The log2 enrichment of `AAGUCCUGUGCUACACAUCGUAUGUACCGAAUCGGGUUUUUUUGGGAAAGGGAGGGAAAGUAUUAUGUUACGCCGUUCGGAUCUGCACUU` is reported as -0.14.
The log2 enrichment of `CCUGUGCUACACAUCGUAUGUACCGAAUCGGUUUUUUUGGUUUUUUUGGGUUUUUUUGGGAAAGUAUUAUGUUACGCCGUUCGGAUCUGC` is reported as -0.75.
The log2 enrichment of `UAACUUUAGAGGAGGAGCUGAUGGAUAUGGCAGUGGACGUGGAUUUGGGGAUGGCUAUAAUGGGUAUGGAGGAGGACCUGGAGGUGGCAA` is reported as -0.185.
The log2 enrichment of `UGUGCUACACAUCGUAUGUACCGAAUCGGGGAAAAAAAGGGGAAAAAAAGGGGAAAAAAAGGGAAAGUAUUAUGUUACGCCGUUCGGAUC` is reported as 0.762.
With `UAACUUUAGAGGAGGAUCUGAUGGAUAUGGCAGUGGACGUGGAUUUGGGGAUGGCUAUAAUGGGUAGGGAGGAGGACCUGGAGGUGGCAA` the log2 enrichment was -0.379.
For `UCCUGUGCUACACAUCGUAUGUACCGAAUCGGGUUUUUUUGGGUUUUUGGGAAAAAGGGAAAGUAUUAUGUUACGCCGUUCGGAUCUGCA`, the log2 enrichment was 0.0453.

Mixed results
The fold induction of `PhoQ, residues 284 288 289 292 302 303 AANNSF` is reported as 2.89 (PhoP, residues 12 14 15 18 19 AQCLL (Escherichia coli, UniProt P23836); Sort-seq, item: YFP reporter; E. coli; PhoQ-PhoP variant library, with: 10 µM Mg2+; reference: high Mg2+ state, higher = stronger signaling).
